# Measurements pooled from the literature.
# Compare with care: the assays were run in different laboratories. Values joined by “and” are separate records of one study, mostly repeats; a detail may differ. ± marks the error that the study gave.
# uncharacterized protein: uncharacterized protein (Bos taurus, UniProt E1BM68)
# NPY1R: Neuropeptide Y receptor type 1 (NPY1R, Homo sapiens, UniProt P25929)
# Chain of UniProt P25929 (whole entry, looked up): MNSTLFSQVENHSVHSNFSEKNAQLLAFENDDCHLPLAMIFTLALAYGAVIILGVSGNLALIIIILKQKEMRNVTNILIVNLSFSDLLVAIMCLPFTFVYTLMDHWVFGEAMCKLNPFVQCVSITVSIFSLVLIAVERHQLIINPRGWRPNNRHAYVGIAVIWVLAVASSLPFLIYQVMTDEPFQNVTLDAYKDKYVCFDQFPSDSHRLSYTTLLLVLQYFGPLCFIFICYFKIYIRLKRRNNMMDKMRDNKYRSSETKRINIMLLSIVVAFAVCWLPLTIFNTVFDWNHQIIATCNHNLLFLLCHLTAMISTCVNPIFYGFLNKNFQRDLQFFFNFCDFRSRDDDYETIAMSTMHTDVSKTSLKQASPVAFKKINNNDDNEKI
# Ppara: Peroxisome proliferator-activated receptor alpha (Ppara, Mus musculus, UniProt P23204)
# Chain of UniProt P23204 (whole entry, looked up): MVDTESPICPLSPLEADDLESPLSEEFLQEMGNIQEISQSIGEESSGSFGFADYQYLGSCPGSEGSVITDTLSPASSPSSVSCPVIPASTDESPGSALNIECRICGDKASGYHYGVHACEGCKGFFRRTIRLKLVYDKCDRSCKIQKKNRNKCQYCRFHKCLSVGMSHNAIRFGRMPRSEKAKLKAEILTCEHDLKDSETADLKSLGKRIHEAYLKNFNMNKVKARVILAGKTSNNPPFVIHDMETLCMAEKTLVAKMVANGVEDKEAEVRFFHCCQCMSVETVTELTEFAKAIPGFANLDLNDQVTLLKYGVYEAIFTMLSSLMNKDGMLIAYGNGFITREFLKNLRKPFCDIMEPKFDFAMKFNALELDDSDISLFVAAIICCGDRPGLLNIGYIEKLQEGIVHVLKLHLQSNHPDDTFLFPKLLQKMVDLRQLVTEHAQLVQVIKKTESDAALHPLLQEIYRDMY
# Chain of UniProt Q8N884 (whole entry, looked up): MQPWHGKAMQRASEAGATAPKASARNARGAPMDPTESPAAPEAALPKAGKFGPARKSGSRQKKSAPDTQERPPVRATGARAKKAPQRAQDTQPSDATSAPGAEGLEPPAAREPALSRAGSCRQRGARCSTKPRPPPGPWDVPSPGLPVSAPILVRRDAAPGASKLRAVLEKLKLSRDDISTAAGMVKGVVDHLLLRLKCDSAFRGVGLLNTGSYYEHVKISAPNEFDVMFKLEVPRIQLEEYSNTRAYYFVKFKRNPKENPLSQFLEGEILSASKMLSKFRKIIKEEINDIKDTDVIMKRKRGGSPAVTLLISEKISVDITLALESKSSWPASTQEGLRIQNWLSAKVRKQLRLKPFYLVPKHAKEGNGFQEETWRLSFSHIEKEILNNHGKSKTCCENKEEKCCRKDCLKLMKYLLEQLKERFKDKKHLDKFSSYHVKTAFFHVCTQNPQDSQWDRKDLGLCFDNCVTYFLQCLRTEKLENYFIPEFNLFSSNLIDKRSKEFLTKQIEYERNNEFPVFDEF
# Chain of UniProt P51582 (whole entry, looked up): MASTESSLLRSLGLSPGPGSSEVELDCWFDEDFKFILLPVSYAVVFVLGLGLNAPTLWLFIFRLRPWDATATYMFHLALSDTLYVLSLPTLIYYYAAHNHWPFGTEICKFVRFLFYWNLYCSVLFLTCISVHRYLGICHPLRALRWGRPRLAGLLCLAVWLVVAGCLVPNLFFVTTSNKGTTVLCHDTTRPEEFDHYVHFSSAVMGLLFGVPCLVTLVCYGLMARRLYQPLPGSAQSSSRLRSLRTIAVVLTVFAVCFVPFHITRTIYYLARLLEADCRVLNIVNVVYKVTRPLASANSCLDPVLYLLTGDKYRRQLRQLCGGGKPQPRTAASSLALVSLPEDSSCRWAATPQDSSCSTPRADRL
# Chain of UniProt Q13258 (whole entry, looked up): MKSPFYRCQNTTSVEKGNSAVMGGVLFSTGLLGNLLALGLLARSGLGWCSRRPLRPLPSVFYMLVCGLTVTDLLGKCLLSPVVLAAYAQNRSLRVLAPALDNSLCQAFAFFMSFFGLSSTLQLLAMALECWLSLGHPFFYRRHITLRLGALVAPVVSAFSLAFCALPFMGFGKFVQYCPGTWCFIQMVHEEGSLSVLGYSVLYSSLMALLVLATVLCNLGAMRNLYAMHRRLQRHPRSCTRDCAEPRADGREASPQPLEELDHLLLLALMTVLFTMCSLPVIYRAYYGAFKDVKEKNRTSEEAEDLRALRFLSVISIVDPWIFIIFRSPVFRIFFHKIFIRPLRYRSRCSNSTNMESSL
# Chain of UniProt Q9BQB4 (whole entry, looked up): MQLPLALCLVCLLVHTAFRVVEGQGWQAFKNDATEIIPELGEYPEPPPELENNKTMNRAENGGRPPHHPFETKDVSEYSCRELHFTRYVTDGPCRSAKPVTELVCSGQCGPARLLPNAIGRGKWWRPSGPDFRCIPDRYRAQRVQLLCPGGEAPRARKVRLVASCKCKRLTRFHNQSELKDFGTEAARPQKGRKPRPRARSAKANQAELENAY
# Chain of UniProt P48547 (whole entry, looked up): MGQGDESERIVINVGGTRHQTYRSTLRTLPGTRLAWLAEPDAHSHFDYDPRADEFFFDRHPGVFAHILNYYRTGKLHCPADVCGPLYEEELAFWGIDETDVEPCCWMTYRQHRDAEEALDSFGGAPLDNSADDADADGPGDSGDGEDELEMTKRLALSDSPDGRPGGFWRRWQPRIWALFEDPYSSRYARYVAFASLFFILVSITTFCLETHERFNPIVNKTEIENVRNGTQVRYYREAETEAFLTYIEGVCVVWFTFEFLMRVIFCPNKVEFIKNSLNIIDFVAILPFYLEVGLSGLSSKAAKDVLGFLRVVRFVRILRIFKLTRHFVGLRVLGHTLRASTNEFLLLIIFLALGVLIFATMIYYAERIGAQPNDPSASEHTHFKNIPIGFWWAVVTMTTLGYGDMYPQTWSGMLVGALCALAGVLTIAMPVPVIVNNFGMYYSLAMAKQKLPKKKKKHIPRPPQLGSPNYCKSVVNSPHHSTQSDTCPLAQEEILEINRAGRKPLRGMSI
# Chain of UniProt Q08499 (whole entry, looked up): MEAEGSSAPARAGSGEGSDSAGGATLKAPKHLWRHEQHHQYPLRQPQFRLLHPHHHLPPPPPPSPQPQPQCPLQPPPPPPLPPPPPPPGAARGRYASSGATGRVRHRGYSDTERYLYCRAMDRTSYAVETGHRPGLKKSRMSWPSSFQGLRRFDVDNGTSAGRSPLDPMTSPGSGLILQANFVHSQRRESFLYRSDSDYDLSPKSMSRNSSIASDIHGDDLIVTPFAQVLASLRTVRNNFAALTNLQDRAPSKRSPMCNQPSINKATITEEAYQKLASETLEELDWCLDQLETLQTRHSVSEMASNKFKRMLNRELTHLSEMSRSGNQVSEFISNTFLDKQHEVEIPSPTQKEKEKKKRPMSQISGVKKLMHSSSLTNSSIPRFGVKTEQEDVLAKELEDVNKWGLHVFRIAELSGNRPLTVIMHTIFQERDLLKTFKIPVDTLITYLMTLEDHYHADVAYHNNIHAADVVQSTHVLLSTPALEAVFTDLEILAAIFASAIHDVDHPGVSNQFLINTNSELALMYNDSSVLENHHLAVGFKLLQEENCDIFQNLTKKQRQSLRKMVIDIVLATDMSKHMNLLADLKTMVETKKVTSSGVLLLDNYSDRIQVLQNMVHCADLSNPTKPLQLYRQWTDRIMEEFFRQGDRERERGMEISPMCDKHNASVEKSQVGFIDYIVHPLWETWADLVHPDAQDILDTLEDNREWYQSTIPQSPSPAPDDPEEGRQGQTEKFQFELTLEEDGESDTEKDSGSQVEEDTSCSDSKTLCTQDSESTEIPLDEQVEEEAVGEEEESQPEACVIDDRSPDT
# Chain of UniProt P34995 (whole entry, unmodified, looked up): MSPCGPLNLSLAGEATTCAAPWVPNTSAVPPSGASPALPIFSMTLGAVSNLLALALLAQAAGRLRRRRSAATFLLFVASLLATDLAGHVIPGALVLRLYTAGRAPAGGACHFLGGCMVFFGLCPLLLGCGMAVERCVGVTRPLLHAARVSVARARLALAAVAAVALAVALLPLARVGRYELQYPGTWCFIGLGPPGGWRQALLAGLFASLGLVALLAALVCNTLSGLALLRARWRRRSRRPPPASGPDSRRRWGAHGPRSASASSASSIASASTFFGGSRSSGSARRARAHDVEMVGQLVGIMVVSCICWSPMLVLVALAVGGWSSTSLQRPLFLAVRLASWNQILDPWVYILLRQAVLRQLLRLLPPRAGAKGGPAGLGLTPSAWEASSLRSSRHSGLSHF
SMILES,target,assay,test system,setting,EC50
CCc1nccnc1OC,uncharacterized protein,"cAMP level, agonist, cAMP luminescence",HEK293 cells,,292 ± 146 µM
CCOC(=O)c1cc(C(=O)OCC)c(-n2nc(C)cc2C)nc1O,NPY1R,"cAMP accumulation, agonist",SK-N-MC,,63 µM
O=c1ccn([C@@H]2O[C@H](COP(=O)(O)OP(=O)(O)OP(=O)(O)O)[C@@H](O)[C@H]2O)c(=O)[nH]1,"P2Y purinoceptor 4 (P2RY4, Homo sapiens, UniProt P51582)","agonist, cell-based",,,0.396 µM
CCO[C@H](COc1ccc(C(F)(F)F)cc1)CSc1ccc(OCC(=O)O)c(C)c1,Ppara,"receptor activation, agonist, luciferase reporter",,"serum-free, species mouse",7 µM
Cc1nc(-c2ccc(C(F)(F)F)c(F)c2)nc(Nc2ccc(CC(=O)O)cc2)c1C,"3',5'-cyclic-AMP phosphodiesterase 4D (PDE4D, Homo sapiens, UniProt Q08499)","reporter gene, dual luciferase",,,78.3 ± 4.49 µM
Cc1cnccn1,uncharacterized protein,"cAMP level, agonist, cAMP luminescence",HEK293 cells,,> 1500 µM
O=C(Nc1ccn(Cc2ccc(O)cc2C(F)(F)F)n1)c1c(F)cccc1F,"Voltage-gated potassium channel KCNC1 (KCNC1, Homo sapiens, UniProt P48547)","ion channel activity, agonist",cells overexpressing KCNC1,human receptor,> 10 µM
C=Cc1cnccn1,uncharacterized protein,"cAMP level, agonist, cAMP luminescence",HEK293 cells,,> 1500 µM
CCOC(=O)c1cnn2c(C)c(Cc3ccc(Cl)nc3)c(C)nc12,NPY1R,"cAMP accumulation, agonist",SK-N-MC,,> 100 µM
C=CCc1ccc(OC)c(OC)c1,uncharacterized protein,"cAMP level, agonist, cAMP luminescence",HEK293 cells,,32.8 ± 2.77 µM
CO[C@H]1O[C@H](COS(=O)(=O)O)[C@@H](O[C@@H]2O[C@@H](C(=O)O)[C@@H](O[C@H]3O[C@H](COS(=O)(=O)O)[C@@H](O[C@@H]4O[C@H](C(=O)O)[C@@H](O[C@H]5O[C@H](COS(=O)(=O)O)[C@@H](O)[C@H](O)[C@H]5NS(=O)(=O)O)[C@H](O)[C@H]4O)[C@H](OS(=O)(=O)O)[C@H]3NS(=O)(=O)O)[C@H](O)[C@H]2OS(=O)(=O)O)[C@H](O)[C@H]1NS(=O)(=O)O,"Sclerostin (SOST, Homo sapiens, UniProt Q9BQB4)",fluorescence polarization competition,,"corrected value, added: TAMRA-labelled probe",1610 ± 860 µM
CCCCC[C@H](O)/C=C/[C@H]1C(=O)C[C@H](O)[C@@H]1C/C=C\CCCC(=O)O,"Prostaglandin D2 receptor (PTGDR, Homo sapiens, UniProt Q13258)",agonist,,,0.0501 µM
COc1nccnc1CC(C)C,uncharacterized protein,"cAMP level, agonist, cAMP luminescence",HEK293 cells,,257 ± 34.5 µM
CSc1ccc(C(=O)/C=C/c2cc(C)c(OC(C)(C)C(=O)O)c(C)c2)cc1,Ppara,"receptor activation, agonist, luciferase reporter",,"serum-free, species mouse",0.3 µM
CCCCC[C@H](O)/C=C/[C@H]1[C@H](O)CC(=O)[C@@H]1C/C=C\CCCC(=O)O,"Prostaglandin E2 receptor EP1 subtype (PTGER1, Homo sapiens, UniProt P34995, P39S)","IP1 accumulation, agonist",AD293,EP1 P39S mutant,0.0056 µM
CCO[C@@H](Cc1ccc(OCCn2c(C)ccc2-c2ccc(SC)cc2)cc1)C(=O)O,Ppara,"receptor activation, agonist, luciferase reporter",,"serum-free, species mouse",0.4 µM
Cc1nn(-c2nc3ccccc3[nH]2)c(O)c1C(c1ccccn1)c1c(C)nn(-c2nc3ccccc3[nH]2)c1O,"Cyclic GMP-AMP synthase, catalytic domain; with DNA (CGAS, Homo sapiens, UniProt Q8N884)","liquid-liquid phase separation, inhibitor",,,6.72 µM and 6.74 µM
COc1cnccn1,uncharacterized protein,"cAMP level, agonist, cAMP luminescence",HEK293 cells,,> 1500 µM
CC[C@H](C)[C@H](NC(=O)[C@H](Cc1ccccc1)NC(=O)[C@H](CCC(=O)O)NC(=O)[C@H](CCCNC(=N)N)NC(=O)[C@H](C)NC(=O)[C@H](C)NC(=O)[C@H](CCC(N)=O)NC(=O)[C@H](CCC(=O)O)NC(=O)[C@H](CCC(=O)O)NC(=O)[C@H](CC(C)C)NC(=O)[C@H](Cc1ccc(O)cc1)NC(=O)[C@H](CO)NC(=O)[C@H](CO)NC(=O)[C@@H](NC(=O)[C@H](CC(=O)O)NC(=O)[C@H](CO)NC(=O)[C@@H](NC(=O)[C@H](Cc1ccccc1)NC(=O)[C@@H](NC(=O)CNC(=O)[C@H](CCC(=O)O)NC(=O)[C@H](C)NC(=O)CCc1c[nH]cn1)[C@@H](C)O)[C@@H](C)O)C(C)C)C(=O)N[C@@H](C)C(=O)N[C@@H](Cc1c[nH]c2ccccc12)C(=O)N[C@@H](CC(C)C)C(=O)N[C@H](C(=O)N[C@@H](CCCNC(=N)N)C(=O)NCC(=O)N[C@@H](CCCNC(=N)N)C(=O)N[C@@H](CCCCNC(=O)COCCOCCNC(=O)COCCOCCNC(=O)CC[C@H](NC(=O)CCCCCCCCCCCCCCCCC(=O)O)C(=O)O)C(=O)O)C(C)C,"Glucagon-like peptide 1 receptor (GLP1R, Homo sapiens, UniProt P43220)","cAMP reporter gene, agonist, CRE luciferase",BHK,"without Zr, 1% HSA",8.4e-05 µM

# Repeated from above:
SMILES,target,assay,test system,setting,EC50
Cc1nn(-c2nc3ccccc3[nH]2)c(O)c1C(c1ccccn1)c1c(C)nn(-c2nc3ccccc3[nH]2)c1O,"Cyclic GMP-AMP synthase, catalytic domain; with DNA (CGAS, Homo sapiens, UniProt Q8N884)","liquid-liquid phase separation, inhibitor",,,6.72 µM and 6.74 µM
COc1cnccn1,uncharacterized protein,"cAMP level, agonist, cAMP luminescence",HEK293 cells,,> 1500 µM
